Assay results gathered from unrelated publications.
Every numbered part comes from another study and shows a few of its results, in no order.
UniProt P60842, sequence (whole entry, looked up): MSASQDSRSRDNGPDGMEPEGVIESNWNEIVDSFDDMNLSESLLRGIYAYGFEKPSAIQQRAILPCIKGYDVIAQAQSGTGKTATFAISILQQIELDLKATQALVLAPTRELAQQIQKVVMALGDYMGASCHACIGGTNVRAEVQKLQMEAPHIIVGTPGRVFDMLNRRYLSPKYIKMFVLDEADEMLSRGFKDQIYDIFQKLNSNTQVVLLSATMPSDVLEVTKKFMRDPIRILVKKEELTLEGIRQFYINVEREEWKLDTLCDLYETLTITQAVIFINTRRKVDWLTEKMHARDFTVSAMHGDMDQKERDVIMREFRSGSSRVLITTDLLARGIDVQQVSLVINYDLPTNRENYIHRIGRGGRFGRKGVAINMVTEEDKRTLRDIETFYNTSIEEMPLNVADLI

Study 1 — effect on: enzyme activity; action: inhibitor; tested at: 20 µM
Target: Replicase polyprotein 1ab, polymerase (rep, Severe acute respiratory syndrome coronavirus 2, UniProt P0DTD1)
SMILES | inhibition [%]
OC(c1ccccc1)(c1ccccc1)C1CCNCC1 | -5.21
COc1cc2c(Nc3ccc(Cl)c(Cl)c3F)ncnc2cc1OC[C@@H]1C[C@@H]2CN(C)C[C@@H]2C1 | 7.23
OC[C@H]1O[C@@H](OCCc2ccc(O)cc2)[C@H](O)[C@@H](O)[C@@H]1O | -0.34
CC(=O)O[C@]1(C(C)=O)CC[C@H]2[C@@H]3C[C@H](C)C4=CC(=O)C=C[C@]4(C)[C@@]3(F)[C@@H](O)C[C@@]21C | -4.49
N[C@H](Cc1c[nH]cn1)C(=O)O | -1.12
CCC[C@H](Nc1nc(-c2ccc(NC(=O)NCC)c(OC)c2)ncc1C)c1cccnc1 | 1.46
Oc1nc(-c2ccc(C(F)(F)F)cc2)nc2c1CSCC2 | -0.63
CCCCCCCCCCCCCCCCCCCCCCO | -4.34
C[C@]12CC[C@H]3[C@@H](CC[C@@]45O[C@@H]4C(O)=C(C#N)C[C@]35C)[C@@H]1CC[C@@H]2O | -0.11
O=c1ccc2[nH]cc(C3=CCNCC3)c2[nH]1 | 2.76
Cc1ccc(S(N)(=O)=O)cc1 | 0.73
O=C(OCC(O)CO)c1ccccc1Nc1ccnc2cc(Cl)ccc12 (centres unmarked) | 6.05
Cc1cc(NC(=O)C(c2ccccc2)N2CCCc3ccccc32)no1 (centres unmarked) | 1.98
CN[C@@H]1[C@@H](O)[C@@H](O[C@@H]2[C@@H](O)[C@H](O[C@H]3O[C@H](CN)[C@@H](O)[C@H](O)[C@H]3O)[C@@H](N)C[C@H]2NC(=O)[C@@H](O)CN)OC[C@]1(C)O | -1.65
Cc1ncc(CSSCc2cnc(C)c(O)c2CO)c(CO)c1O | -3.08
COc1cc(C(=O)NCCCCCC(=O)O)cc(OC)c1OC | -10.9
COc1cc2ncnc(Nc3cccc(Br)c3)c2cc1OC | -5.38
Cc1ccc(F)cc1C(=O)Nc1ccc(C(=O)N2Cc3cccn3Cc3ccccc32)c(Cl)c1 | -0.77
CCN(CC)C(=O)N[C@H]1C[C@@H]2c3cccc4[nH]cc(c34)C[C@H]2N(C)C1 | 3.76
CCOc1cc(CC(=O)N[C@@H](CC(C)C)c2ccccc2N2CCCCC2)ccc1C(=O)O | -6.73
CC(/C=C/C(=O)NO)=C\[C@@H](C)C(=O)c1ccc(N(C)C)cc1 | -4.54
Cc1ccc(CCCO)c(NCc2ccc3nc(NCCCN4CCOCC4)n(Cc4nc(C)ccc4O)c3c2)c1 | -3.26
Cc1cccc(-c2[nH]c(CNc3ccccc3F)nc2-c2ccc3ncnn3c2)n1 | -3.57
CN1[C@@H]2CC[C@H]1C[C@@H](OC(=O)c1c[nH]c3ccccc13)C2 | 1.71
COc1cccc(-c2ccc(NC(=O)C3=C(C(=O)O)CCC3)c(F)c2)c1 | 7.81

Study 2 — technique: protein binding microarray; molecule type: double-stranded DNA, one strand shown; sample: in vitro; tested at: not given; reference: not given; reading: higher = stronger binding
Target: Histone acetyltransferase KAT6A, winged helix 2, GST fusion (KAT6A, Homo sapiens, UniProt Q92794, residues 85-181)
Notes: 8-mer, flanks averaged, mean of 2 arrays, mostly near background
Residues (chain): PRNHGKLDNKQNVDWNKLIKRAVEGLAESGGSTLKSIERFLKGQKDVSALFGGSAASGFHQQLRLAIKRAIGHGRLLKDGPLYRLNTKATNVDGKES
Sequence | E-score
CTAGGTCA | -0.0807
CCTCGTGA | 0.0905
ATTCGCAG | 0.122
AACTTAAG | -0.0011
AACTAGTT | -0.179
AGCGCCCT | 0.063
ATTCGGAG | 0.135
TACTGGCA | -0.199

Study 3 — effect on: enzyme activity; action: inhibitor; tested at: 20 µM; notes: hit confirmation
Target: Replicase polyprotein 1ab, main protease (rep, Severe acute respiratory syndrome coronavirus 2, UniProt P0DTD1)
SMILES | inhibition [%]
CC[C@]1(O)C[C@H]2C[N@@](CCc3c([nH]c4ccccc34)[C@@](C(=O)OC)(c3cc4c(cc3OC)N(C=O)[C@H]3[C@@](O)(C(=O)OC)[C@H](OC(C)=O)[C@]5(CC)C=CCN6CC[C@]43[C@@H]65)C2)C1 | 29.2
O=S(=O)(/N=C/c1c(O)ccc2ccccc12)c1cccs1 | 14.7
O=C(CC1Sc2ncnn2C1=O)Nc1ccc(Br)cc1 (centres unmarked) | 109

Study 4 — cell line: HEK-293T; effect on: pseudovirus infection; technique: FDA-approved drug library screen; organism: VSV pseudotyped with SARS-CoV-2 spike; tested at: 10 µM; time: 16 h; reference: vehicle-treated
SMILES | GFP-positive cells [%]
O=S(=O)(O)CCS | 106
CC(=O)Oc1cc2c(s1)CCN(C(C(=O)C1CC1)c1ccccc1F)C2 (centres unmarked) | 118
COc1ccc2c(c1)c(CC(=O)O)c(C)n2C(=O)c1ccc(Cl)cc1 | 108
C[C@]12CCC(=O)C=C1[C@@H]1C[C@@H]1[C@H]1[C@@H]3[C@@H]4C[C@@H]4[C@@]4(CCC(=O)O4)[C@@]3(C)CC[C@@H]12 | 192

Study 5 — technique: competition protein-binding microarray; molecule type: double-stranded DNA, one strand shown; sample: in vitro; tested at: 2 µM; together with: Pho4 competitor, 0.05 µM; reading: higher = stronger binding; all sequences stand within: … GTCTTGATTCGCTTGACGCTGCTG
Target: Centromere-binding protein 1, full length, His-tagged (CBF1, Saccharomyces cerevisiae, UniProt P17106, residues 1-351)
UniProt P17106, sequence (whole entry, looked up): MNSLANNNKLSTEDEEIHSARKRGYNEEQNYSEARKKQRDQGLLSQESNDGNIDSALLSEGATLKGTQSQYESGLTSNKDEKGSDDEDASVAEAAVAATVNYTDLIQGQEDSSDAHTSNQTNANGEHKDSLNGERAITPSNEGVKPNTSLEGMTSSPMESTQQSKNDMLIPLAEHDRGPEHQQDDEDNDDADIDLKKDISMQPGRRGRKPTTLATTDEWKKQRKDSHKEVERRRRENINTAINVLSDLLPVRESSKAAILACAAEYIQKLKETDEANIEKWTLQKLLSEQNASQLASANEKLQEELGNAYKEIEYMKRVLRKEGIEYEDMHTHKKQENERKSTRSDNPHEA
Notes: whole 60-bp probe, lowest competitor level
Sequence | fluorescence intensity [a.u.]
CGGGGTTAAGTTTGCCTTGTGGGTGGCTTGCAGCAG | 80.4
ATCGCTTCCTCCTCCTACATGACAGAGCTGGTACGC | 74
AGTTACGGTTGCCATCACGTGTCGGTAGGATAAAGT | 3020
CATACCCAACCTTGAACAGTGGGTGAAGATATTTGT | 78.9
TTCTTGATTAGGACGCCCATGAAGTGGGCCAGCCAA | 55.2
ACTAAACAGTATATTCACGTGATGGCTTTGCCTTAC | 2230
GTAAGTCAAAATCCGCGCGTGACTCGTAAAGCGTTA | 623
TCGATATATAGAAAGCACGATTGCCCAGGAGTTATG | 76

Study 6 — technique: EMSA with sequencing; molecule type: double-stranded DNA, one strand shown; sample: in vitro; tested at: 10 and 20 nM; reference: negative control set to 0; reading: higher = stronger binding
Target: Hepatocyte nuclear factor 3-alpha (Foxa1, Mus musculus, UniProt P35582, residues 1-468, full length assumed)
Notes: whole designed probe, mean of two concentrations, ends assumed
Construct (chain): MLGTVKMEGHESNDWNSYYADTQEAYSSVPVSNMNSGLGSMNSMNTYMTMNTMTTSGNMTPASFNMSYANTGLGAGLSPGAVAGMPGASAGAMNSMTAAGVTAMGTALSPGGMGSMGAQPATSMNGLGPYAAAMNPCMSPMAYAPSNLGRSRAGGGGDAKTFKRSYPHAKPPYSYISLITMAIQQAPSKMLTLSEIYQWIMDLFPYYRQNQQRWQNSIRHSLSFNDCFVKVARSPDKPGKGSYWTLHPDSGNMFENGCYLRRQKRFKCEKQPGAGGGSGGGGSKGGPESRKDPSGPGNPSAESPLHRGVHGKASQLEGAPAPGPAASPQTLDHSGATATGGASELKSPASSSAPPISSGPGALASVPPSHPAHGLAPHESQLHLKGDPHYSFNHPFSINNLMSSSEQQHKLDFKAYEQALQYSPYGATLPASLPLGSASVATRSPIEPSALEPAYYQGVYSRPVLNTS
Sequence | normalised bound fraction [ratio]
GTGAGCGGTGCCCATTGATGGGGAACATCTTCCCCCTCTTCCTTGCCCCACCAGCTCACCTACGGGGGTTATTTGCACAAAGGAAAATAAATAAAGCCGGCATTCGTTAACGCAGTTCACGCGCATACTGCTGTTTGCTCTGGATCTAACATGGTCCTTTGGCGACGCCAGGCTCCGGGAGAGCAAAGCACCGTGTCAGGGCCATGATCCGGGGTGGCCTTTCACTGGGATCGTGGGGAC | 0.39
GTGAGCGGTGCCCATTGATGGGGAACCATTAGAGTCAAAGTTGTTAAGGGGAGCTAGTCATAGCTACCACGTGGCCAGGCATGTGGAACCAGACACCAGGCACACATCATGTAACATCATATTTACTTTAATGAATCATCACAACCTAGTTCATAGTGACACACTACTTGAGATATATAGAATAACATTATTACCCAGTAAGTATGTGAACATTCCGATTTTCACTGGGATCGTGGGGAC | 0.341
GTGAGCGGTGCCCATTGATGGGGAACCCCTCATCCTGGGTGTCGGGGTGGGAGGTGTTCTCATCATGAATGGGAGGCGTACCCAGATCCAGCTCTGCCTTTTTTTAACCAAACCACATTTGTTTACACTCGCTGTTAATCGACATAGTGACTCACCAGCAAGATATGATACATGCCAGGAGAGAAAAAGAAAGTGCTGATGGAAAAATAATCTCATTAGTTTCACTGGGATCGTGGGGAC | 0.335
GTGAGCGGTGCCCATTGATGGGGAACCCTTATTTCTTTTTTGAAAATACAGTGACTTAGCGAGTGATACAGTATGAATGAAAGTTTTGAAGTTGGTTCATGGTGTATAAAGAGAAACAAAGTAAACAAAGCTCTTAATGGAAATACATACTTGGGACCAAACAACAGCCTATCTAAATGTTTTTTTTTGGTATTCATTTGGAAATTAATCAGATAATAATTTCACTGGGATCGTGGGGAC | 0.487

Other studies, line by line
Sequence | target | assay | system | setting | how to read | endpoint | value
GGUA | Eukaryotic initiation factor 4A-I (EIF4A1, Homo sapiens, UniProt P60842, residues 1-406, full length assumed) | RNA Bind-n-Seq | RNA, in vitro | 15 pmol, 4-mer, random 30-nt RNA, single round, together with: DMSO vehicle, 2 mM AMP-PNP | reference: input library, higher = stronger binding | 4-mer enrichment | 0.778 fold

Some of these lines once more (study 1):
SMILES | inhibition [%]
Cc1ccc(S(N)(=O)=O)cc1 | 0.73
O=C(OCC(O)CO)c1ccccc1Nc1ccnc2cc(Cl)ccc12 (centres unmarked) | 6.05
Cc1cc(NC(=O)C(c2ccccc2)N2CCCc3ccccc32)no1 (centres unmarked) | 1.98
CN[C@@H]1[C@@H](O)[C@@H](O[C@@H]2[C@@H](O)[C@H](O[C@H]3O[C@H](CN)[C@@H](O)[C@H](O)[C@H]3O)[C@@H](N)C[C@H]2NC(=O)[C@@H](O)CN)OC[C@]1(C)O | -1.65
